Published values collected from several papers.
Compare with care: the assays were run in different laboratories. ± marks the error that the study gave.

CCCCCOc1ccc(-c2cc(-c3ccc(C(=O)N[C@H]4C[C@@H](O)[C@@H](O)NC(=O)[C@@H]5[C@@H](O)[C@@H](C)CN5C(=O)[C@H]([C@H](O)CC(N)=O)NC(=O)[C@H]([C@H](O)[C@@H](O)c5ccc(O)c(OS(=O)(=O)O)c5)NC(=O)[C@@H]5C[C@@H](O)CN5C(=O)[C@H]([C@@H](C)O)NC4=O)cc3)no2)cc1 — Tmax (young infants under 1000 g, plasma; intravenous infusion, 10 mg/kg/day, day 4, mean, 1 h infusion, repeat dosing): 1.1 h
CNC(=O)c1ccc(-c2cnn3ccc(C(=O)N(C)c4ccc(Cl)c(C(=O)OC)c4)cc23)cc1 — Tmax (beagle dogs, both sexes, plasma; oral, 15 mg/kg/day, day 14): 0.917 h
CC[C@@]1(O)C(=O)OCc2c1cc1n(c2=O)Cc2cc3c(CN(C)C)c(O)ccc3nc2-1 — Tmax (human, plasma; oral, 8 mg, patients): 1.78 h
c1cc([C@H]2CC[C@]3(CC2)OO[C@]2(O3)C3CC4CC(C3)CC2C4)ccc1OCCN1CCOCC1 — Tmax (human, plasma; oral, 800 mg, single dose, fed): 5 h
Cc1cc(C(C#N)c2ccc(Cl)cc2)c(Cl)cc1NC(=O)c1cc(I)cc(I)c1O (stereo not drawn) — Tmax (HPLC, non-compartmental; Corriedale lambs, parasitized, plasma; subcutaneous, 5 mg/kg): 38.9 ± 10.1 h
C#C[C@]1(O)CC[C@H]2[C@@H]3CCC4=CC(=O)CC[C@@H]4[C@H]3CC[C@@]21CC — Tmax (HIV-positive women, control arm, serum; oral, dose not given, steady state, median): 1.5 h
CC[C@H](C)[C@H](NC(=O)[C@@H](N)CCCNC(=N)N)C(=O)N[C@H](C(=O)N1CCC[C@H]1C(=O)N[C@@H](C)C(N)=O)C(C)C — Tmax (healthy volunteers, both sexes, plasma; intravenous infusion, 1.5 mg/kg daily, day 7, multiple ascending dose): 0.075 ± 0.0167 h
O[C@H]1CCCN[C@@H]1CCCn1cnc2c(Cl)c(Cl)ccc21 — Tmax (human, plasma; oral, 100 mg, single dose, healthy volunteers): 1.79 h
O=c1[nH]c(Cc2ccccn2)nc2c1cnn2C1CCOCC1 — Tmax (healthy men, extensive metabolizers, plasma; oral, 350 mg single dose, tablet, median): 0.75 h

Some of these lines once more:
c1cc([C@H]2CC[C@]3(CC2)OO[C@]2(O3)C3CC4CC(C3)CC2C4)ccc1OCCN1CCOCC1 — Tmax (human, plasma; oral, 800 mg, single dose, fed): 5 h
